Measured values collected from several papers.
Each line is one published result; not all experiments were run side by side. ± gives the spread as reported.

CC(C)Nc1ccnc(Nc2cccc(C(C)(C)C)c2)n1: “Papp (B to A)” 2.09 ± 1.22 ×10⁻⁶ cm/s (MDCKII-WT cells; 10 µM, pH 7.4).
For COc1cc2[nH]c(C)c(-c3cccc(CO)c3)c(=O)c2cc1Cl, the Papp was 9 ×10⁻⁶ cm/s (PAMPA; pH 7.4).
CCN1CCCC1CNC(=O)c1cc(S(N)(=O)=O)ccc1OC (stereo not shown): “Papp apical to basolateral” 0.59 ×10⁻⁶ cm/s (EpiIntestinal microtissues; 5 µM, 2 h, pH 6.5, basolateral pH 7.4).
With COc1cc2[nH]c(C)c(-c3cc(C(F)(F)F)cc(C(F)(F)F)c3)c(=O)c2cc1Cl the Papp was under 5 ×10⁻⁶ cm/s (PAMPA; pH 7.4).
For CC(C)Nc1ccnc(Nc2cccc(-c3ccccc3)c2)n1, “Papp (B to A)” read 1.48 ± 0.281 ×10⁻⁶ cm/s (MDCKII-WT cells; 10 µM, pH 7.4).
With COc1cc2[nH]c(C)c(-c3ccc(F)cc3)c(=O)c2cc1Cl the Papp was 65 ×10⁻⁶ cm/s (PAMPA; pH 7.4).
COC(=O)C(Cc1cccc(C)c1I)NC(=O)CNCc1ccccc1 (stereo not shown) — result for “Papp A to B”: 359 ± 43.8 ×10⁻⁶ cm/s (bEnd.3 Transwell BBB model; 10 µg/mL, 120 min, 37 °C).
For COC(=O)c1cccc(-c2cccc(Nc3nccc(NC4CCCCC4)n3)c2)c1, “Papp (A to B)” read 0.017 ± 0.005 ×10⁻⁶ cm/s (MDCKII-WT cells; 10 µM, pH 7.4).
Under “Papp apical to basolateral”, CCOC(=O)[C@H](CCc1ccccc1)N[C@@H](C)C(=O)N1CCC[C@H]1C(=O)O is recorded as 0.86 ×10⁻⁶ cm/s (EpiIntestinal microtissues; 5 µM, 2 h, pH 6.5, basolateral pH 7.4).
With CCOC(=O)[C@H](CCSC)NC(=O)c1ccc(C2CC2)c(Cc2ccc(F)cc2)n1 the Papp was 1.12 ×10⁻⁶ cm/s (PAMPA).
Under “Papp apical to basolateral”, COC(=O)[C@H]1[C@H]2C[C@@H]3c4[nH]c5cc(OC)ccc5c4CCN3C[C@H]2C[C@@H](OC(=O)c2cc(OC)c(OC)c(OC)c2)[C@@H]1OC is recorded as 2.6 ×10⁻⁶ cm/s (EpiIntestinal microtissues; 5 µM, 2 h, pH 6.5, basolateral pH 7.4).
The Papp of CCc1c(C)[nH]c2cc(OC)c(Cl)cc2c1=O is reported as 57 ×10⁻⁶ cm/s (PAMPA; pH 7.4).
COc1cccc(-c2cccc(Nc3nccc(NC(C)C)n3)c2)c1 — result for “Papp (B to A)”: 0.543 ± 0.056 ×10⁻⁶ cm/s (MDCKII-WT cells; 10 µM, pH 7.4).
For C[C@H]1O[C@@H](O[C@H]2[C@@H](O)C[C@H](O[C@H]3[C@@H](O)C[C@H](O[C@H]4CC[C@@]5(C)[C@H](CC[C@@H]6[C@@H]5C[C@@H](O)[C@]5(C)[C@@H](C7=CC(=O)OC7)CC[C@]65O)C4)O[C@@H]3C)O[C@@H]2C)C[C@H](O)[C@@H]1O, “Papp B to A” read 14.1 ± 1.6 ×10⁻⁶ cm/s (EpiIntestinal microtissues; 5 µM, 2 h, no inhibitor).
COc1cc2[nH]c(C)c(-c3ccc(COc4ccccc4)cc3)c(=O)c2cc1Cl gave a Papp of under 5 ×10⁻⁶ cm/s (PAMPA; pH 7.4).
Under “Papp (A to B)”, CC(C)Nc1ccnc(Nc2cccc(-c3ccncc3)c2)n1 is recorded as 68.6 ± 32.2 ×10⁻⁶ cm/s (MDCKII-WT cells; 10 µM, pH 7.4).
Under “Papp (A to B)”, CN/C(=N/CCSCc1nc[nH]c1C)NC#N is recorded as 3.6 ×10⁻⁶ cm/s (human EpiIntestinal microtissues; 5 µM, 2 h).
With CCOc1cc(-c2c(C)[nH]c3cc(OC)c(Cl)cc3c2=O)ccc1F the Papp was 145 ×10⁻⁶ cm/s (PAMPA; pH 7.4).
Under “Papp A to B”, COC(=O)C(Cc1cccc(OC)c1I)NC(=O)CNCc1ccccc1 (stereo not shown) is recorded as 146 ± 4.17 ×10⁻⁶ cm/s (bEnd.3 Transwell BBB model; 10 µg/mL, 120 min, 37 °C).
Under “Papp (B to A)”, c1ccc(-c2cccc(Nc3nccc(NC4CCCCC4)n3)c2)nc1 is recorded as 15.1 ± 12.1 ×10⁻⁶ cm/s (MDCKII-WT cells; 10 µM, pH 7.4).
For CCCCCCOC(=O)NC(=N)c1ccc(NCc2nc3cc(C(=O)N(CCC(=O)OCC)c4ccccn4)ccc3n2C)cc1, “Papp (A to B)” read 0.038 ×10⁻⁶ cm/s (human EpiIntestinal microtissues; 5 µM, 2 h).
The Papp of COc1cc2[nH]c(C)c(-c3ccc(F)cc3F)c(=O)c2cc1Cl is reported as 315 ×10⁻⁶ cm/s (PAMPA; pH 7.4).
C[C@@H]1O[C@@H](O[C@H]2[C@H](Oc3cc(O)c4c(c3)O[C@H](c3ccc(O)cc3)CC4=O)O[C@H](CO)[C@@H](O)[C@@H]2O)[C@H](O)[C@H](O)[C@H]1O has a Papp of 0.082 ± 0.9 ×10⁻⁶ cm/s (PBS receiver; 50 mg/mL, 15 min, pH 6.8).
The Papp of COc1cc2[nH]c(C)c(-c3ccncc3)c(=O)c2cc1Cl is reported as under 5 ×10⁻⁶ cm/s (PAMPA; pH 7.4).
N=C(N)NCCCNC(=O)[C@@H]1CCCCN1C(=O)[C@@H](CC1CCCCC1)NCC(=O)O — result for “Papp apical to basolateral”: 0.81 ×10⁻⁶ cm/s (EpiIntestinal microtissues; 5 µM, 2 h, pH 6.5, basolateral pH 7.4).
For c1ccc(-c2cccc(Nc3nccc(NC4CCCCC4)n3)c2)cc1, “Papp (A to B)” read 0.005 ± 0.004 ×10⁻⁶ cm/s (MDCKII-WT cells; 10 µM, pH 7.4).
CC(C)c1nc(N(C)S(C)(=O)=O)nc(-c2ccc(F)cc2)c1/C=C/[C@@H](O)C[C@@H](O)CC(=O)O: “Papp B to A” 21.2 ± 1.7 ×10⁻⁶ cm/s (EpiIntestinal microtissues; 5 µM, 2 h, no inhibitor).
For COc1cccc(-c2cccc(Nc3nccc(NC4CCCCC4)n3)c2)c1, “Papp (A to B)” read 0.019 ± 0.016 ×10⁻⁶ cm/s (MDCKII-WT cells; 10 µM, pH 7.4).
